Measured values from different studies.
Numbered parts are unrelated; each lists some results of a single study. Substitutions count along the parent as printed.

Set 1 — method: RNA Bind-n-Seq; form: RNA; matrix: in vitro; concentration: 365 nM; relative to: no-protein control; reading: higher = stronger binding
Target: RNA binding protein fox-1 homolog 2, RRM domain, GST-SBP tag (RBFOX2, Homo sapiens, UniProt O43251-10, residues 100-194)
Notes: natural RNA segment, single round, ends assumed
Construct (chain): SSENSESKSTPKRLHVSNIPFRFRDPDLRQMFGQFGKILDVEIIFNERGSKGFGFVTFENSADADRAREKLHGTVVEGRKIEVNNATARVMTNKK
For `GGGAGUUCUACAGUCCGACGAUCUCUCAUACAUUUUGAGACCCUUGGGUCAUUUAUUACUUUUUACAAACUAGUUCCUCUCUUUUUUUCUGCCAAGUCCUGAAUUGAAAACUGUAGGCUUCCUUGCACAGAUGUGGAAUUCUCGGGUGCCAA`, “RBNS enrichment (R)” read 1.78.
For `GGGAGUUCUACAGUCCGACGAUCAGGAAGGAACAUCGUGCAGCUGAUGUGAAACUUGCCCUAUUUGGAAUUAGAUUUCCCUAGGAGGUAUGACAUGCGAUUUACUGUAGGCUCUGAAUCCGAGUGCUCCAGUGUGGAAUUCUCGGGUGCCAA`, “RBNS enrichment (R)” read 0.801.
Under “RBNS enrichment (R)”, `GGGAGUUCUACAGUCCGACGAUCCAGAAAAGGCUUCACUCGCUGGGAACGUCAACCCAGCGAGAAAGGAGGGGAAGCCCCUUCUCCGGGGACCUUAUCUGUGGACUCAGGAAUGAUGGUGUUUAUUGCAAAUGUGGAAUUCUCGGGUGCCAA` is recorded as 0.69.
Under “RBNS enrichment (R)”, `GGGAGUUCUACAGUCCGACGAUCAGCACUCUUGGAUUAAUUCAAUUGUUAUUUCUACUCUUUAACAACAGAAUAAGCCAGAUCCUUGACUCUCAAGCCCCCAGUUUUUAAAAACAAGGUGUUCCUUGAUUUAUUGGAAUUCUCGGGUGCCAA` is recorded as 1.38.
`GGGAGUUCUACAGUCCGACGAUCUCCACAAGGCAGAAGGGAUCACCGGUGGCAGUCACUCGCGUUUUGUGGAGUGUGGCAGGUGGACUUGCUGUGUCUGAUGGAAGGUCAGGGUCAGGAUCUACUGCCUCUGCUGGAAUUCUCGGGUGCCAA`: “RBNS enrichment (R)” 0.237.
Under “RBNS enrichment (R)”, `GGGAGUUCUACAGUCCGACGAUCCUAGCAUGCAGGAGGAUGCCAUCUGUUUCUUUGAGCCUUGUUAGAGAAGGUAAUGCUAGAGGAAGACUCAGUCACACAGAUAACAGGCAUUGGAAACAGCCGCACUAUGGUGGAAUUCUCGGGUGCCAA` is recorded as 19.1.
For `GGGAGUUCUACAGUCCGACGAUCAUGCUGCCAUGCUGGGGGGGGGUCACCCCGACCCCUCAGGCCCACCUGUCACGGGGAACAUGGAGCCUUGGUGUAUUUUUCUUUUCUUUUUUUAAUGAAUCAAUAGCAGCUGGAAUUCUCGGGUGCCAA`, “RBNS enrichment (R)” read 0.418.
`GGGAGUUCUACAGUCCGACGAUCUAUCAAGUAGUUGUUUACAUUUGACAAAAUAGGAACUAUGCCGGCAGAGUCCAACCGAAAACCCCCUAGGUGAGAUAGGCAGUAACUGGGCCUGCUGUCUGCGCCUUUCGUGGAAUUCUCGGGUGCCAA` — result for “RBNS enrichment (R)”: 0.687.
`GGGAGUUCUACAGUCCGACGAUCAACUGCAGGUCAUCCUCGCAUCAGCCAAGGCUGUGGUGCUGUUGAUGCCGCAGUUGGACAGCAUAGGACGGCUUGGUUCUGUUUCAUUGUGUUUGACAAUGUUGCAGUUUUGGAAUUCUCGGGUGCCAA`: “RBNS enrichment (R)” 0.295.

Set 2 — target: CCNA2, cyclin fold, Cln2 fusion (human); method: yeast growth competition, sequencing; matrix: yeast; notes: strong parent motif; relative to: not given; reading: higher = stronger binding
Starting sequence: CDC6 docking peptide (human); TLKGRRLVFDNQL; partner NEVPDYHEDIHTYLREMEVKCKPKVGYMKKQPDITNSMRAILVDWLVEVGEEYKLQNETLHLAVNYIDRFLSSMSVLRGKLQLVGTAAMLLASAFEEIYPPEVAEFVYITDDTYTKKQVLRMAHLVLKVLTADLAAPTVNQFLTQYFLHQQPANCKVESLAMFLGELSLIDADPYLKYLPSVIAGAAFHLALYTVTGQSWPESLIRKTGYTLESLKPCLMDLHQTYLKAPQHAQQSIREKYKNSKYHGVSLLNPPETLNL
`SLKGRRLVFDNQL [T1S]`: “normalised enrichment score” 2.49.
`TLKGRRLVDDNQL [F9D]` — result for “normalised enrichment score”: 0.639.
For `TLKGRRLIFDNQL [V8I]`, “normalised enrichment score” read 3.57.
`TLKGCRLVFDNQL [R5C]`: “normalised enrichment score” 0.109.
`VLKGRRLVFDNQL [T1V]`: “normalised enrichment score” 3.57.
For `ELKGRRLVFDNQL [T1E]`, “normalised enrichment score” read 1.96.
`TLHGRRLVFDNQL [K3H]` — result for “normalised enrichment score”: 1.37.

Set 3 — method: RNA Bind-n-Seq; form: RNA; matrix: in vitro; concentration: 20 nM; notes: 6-mer, flanks averaged, single round; with: 150 mM LiCl; relative to: input library; reading: higher = stronger binding
Target: TAR DNA-binding protein 43, full length, His tag (TARDBP, Homo sapiens, UniProt Q13148, residues 1-414)
`UUCAGC`: “6-mer enrichment (R)” 0.881.
Under “6-mer enrichment (R)”, `GCCUUC` is recorded as 0.942.
Under “6-mer enrichment (R)”, `UGUACG` is recorded as 1.04.
Under “6-mer enrichment (R)”, `CUAUCA` is recorded as 0.845.
Under “6-mer enrichment (R)”, `GCCUAA` is recorded as 0.871.
Under “6-mer enrichment (R)”, `CCAAAC` is recorded as 0.821.
`UAGCGU` — result for “6-mer enrichment (R)”: 1.02.
`AGUGGC`: “6-mer enrichment (R)” 1.07.

Single results of other studies
`PhoQ, residues 284 288 289 292 302 303 NLCILV` has a fold induction of 16.1 (PhoP, residues 12 14 15 18 19 SMASL (Escherichia coli, UniProt P23836); Sort-seq, measured: YFP reporter; E. coli; PhoQ-PhoP variant library, with: 10 µM Mg2+; relative to: high Mg2+ state, higher = stronger signaling).

A few entries again (set 3):
Under “6-mer enrichment (R)”, `GCCUAA` is recorded as 0.871.
`UAGCGU` — result for “6-mer enrichment (R)”: 1.02.
Under “6-mer enrichment (R)”, `CUAUCA` is recorded as 0.845.
